Published values gathered from unrelated publications.
Lines come from different studies, so protocols differ. ± marks the error that the study gave.

O=C(O)/C=C/c1ccc(O)cc1  ABTS radical scavenging (500 µg/mL): 75.5 ± 1.2%
CCN(CCCCOc1ccc(CCC(=O)N2CCC(Cc3ccccc3)CC2)cc1OC)Cc1ccccc1  step-down latency (step-down passive avoidance; scopolamine-induced amnesic mice; 6.5 mg/kg): 180 s
CC[C@H](C)[C@H](NC(=O)[C@H](Cc1c[nH]c2ccccc12)NC(=O)[C@H](CCCNC(=N)N)NC(=O)[C@H](CCCCN)NC(=O)[C@H](CC(C)C)NC(=O)[C@H](CC(=O)O)NC(=O)[C@H](Cc1ccccc1)NC(=O)[C@H](C)NC(=O)[C@H](Cc1ccc(O)cc1)NC(=O)[C@H](CC(N)=O)NC(=O)[C@H](Cc1ccc(O)cc1)NC(=O)[C@H](CCCNC(=N)N)NC(=O)[C@H](Cc1ccc(O)cc1)NC(=O)[C@H](Cc1ccc(O)cc1)NC(=O)[C@@H](NC(=O)[C@H](CC(C)C)NC(=O)[C@H](C)NC(=O)[C@H](CC(N)=O)NC(=O)[C@H](Cc1ccc(O)cc1)NC(C)=O)[C@@H](C)CC)C(=O)N[C@@H](Cc1ccc(O)cc1)C(=O)N[C@@H](CC(C)C)C(N)=O  antigen-experienced T cells (measured: HA-15 tetramer; tetramer+ CD4 T cells, PBMC, healthy adults, HLA-DRB1*0101; dose not given, CD62L−CD45RA+/− or CD62L+CD45RA−): 23.1%
CC(=O)c1nn(-c2ccc(Cl)cc2)c2nc3nc(-c4ccccc4)cc(-c4ccc5ccccc5n4)c3c(=O)n12  IC50 (DPPH scavenging, absorbance; 30 min): 133 µM
COc1ccc([N+](=O)[O-])cc1NC(=O)CCC(=O)[O][Zn][O]C(=O)CCC(=O)Nc1cc([N+](=O)[O-])ccc1OC.c1ccncc1  ABTS radical scavenging (ABTS; 250 µg/mL): 71.85 ± 0.57%
CC(C)C[C@@H]1NC(=O)[C@@H](Cc2c[nH]c3ccccc23)NC(=O)[C@H](CCCNC(=N)N)NC(=O)[C@@H](CCC(=O)O)NC(=O)[C@H](CCC(N)=O)NC(=O)[C@@H](CCC(=O)O)NC(=O)[C@H](CCCNC(=N)N)NC(=O)[C@@H](Cc2c[nH]c3ccccc23)NC1=O  pre-beta HDL level (mouse BALB/c; intraperitoneal, 20 mg/kg): increased
CC[C@H](C)[C@H](NC(=O)[C@H](CCCNC(=N)N)NC(=O)[C@H](CCC(N)=O)NC(=O)[C@H](CC(=O)O)NC(=O)[C@H](CC(C)C)NC(=O)[C@H](CC(C)C)NC(=O)[C@H](CC(N)=O)NC(=O)[C@H](Cc1ccccc1)NC(=O)[C@H](CC(=O)O)NC(=O)[C@@H](NC(=O)[C@@H](NC(=O)[C@H](CC(N)=O)NC(=O)CNC(=O)[C@H](CO)NC(C)=O)C(C)C)[C@@H](C)CC)C(=O)N[C@H](C(=O)N[C@@H](Cc1c[nH]c2ccccc12)C(=O)N[C@@H](CCC(N)=O)C(=O)N[C@@H](CC(N)=O)C(=O)N[C@@H](Cc1c[nH]c2ccccc12)C(=O)N[C@@H](Cc1ccc(O)cc1)C(=O)N[C@@H](C)C(N)=O)[C@@H](C)CC  antigen-experienced T cells (measured: HA-51 tetramer; tetramer+ CD4 T cells, PBMC, healthy adults, HLA-DRB1*0101; dose not given, CD62L−CD45RA+/− or CD62L+CD45RA−): 31.7%
COC[C@@H](NC(C)=O)C(=O)NCc1ccc(OCc2cccc(Cl)c2)cc1  ED50 (6 Hz seizures; mouse; intraperitoneal): 13 mg/kg
CCCCCCOP(=O)(O)Oc1c2c(c(OP(=O)(O)OCCCCCC)c3c1C1CC3c3cc4c(cc31)C1CC4c3ccccc31)C1CC2c2cc3c(cc21)C1CC3c2ccccc21  EC50 (liposome dye leakage; liposomes 200 nm; 30 min, with: carboxyfluorescein 50 mM): 6.5 µM
O=C(O)/C=C/c1cc(O)cc(O)c1  ABTS radical scavenging (62.5 µg/mL): 49.2 ± 1.26%
CCN(Cc1ccccc1)C(=O)CCc1nc(CN2CCN(C(=O)Cc3ccc(OC)c(OC)c3)CC2)no1  onset day (thermal withdrawal threshold, Hargreaves test; mouse CCI model; 20 mg/kg, dosing from day 11): 13 days
O=C1C(P(=O)(O)O)CCCN1O (stereo not shown)  blood glucose level (cynomolgus monkey; dose not given, fasting state): decreased
O=P(O)(O)Oc1c2c(c(OP(=O)(O)O)c3c1C1CC3c3cc4c(cc31)C1CC4c3ccccc31)C1CC2c2cc3c(cc21)C1CC3c2ccccc21  EC50 (liposome dye leakage; liposomes 200 nm; 30 min, with: carboxyfluorescein 50 mM): 79.2 µM
Cc1ccc(/C=C/C(=O)O)cc1-c1cc2c(cc1C)C(C)(C)CCC2(C)C  log2 fold change (RNA sequencing, measured: Nmb; rat, brain; dose not given, 24 h; reference: vehicle): 0.33
CSCCNC(=O)CCC(C)C1CCC2C3C(O)CC4CC(O)CCC4(C)C3CCC12C (stereo not shown)  mRNA level (measured: Cyp7a1; SPF mice, liver; oral gavage, 50 mg/kg daily; reference: corn oil): increased
CC[C@H](C)[C@H](NC(=O)[C@H](CCCNC(=N)N)NC(=O)[C@H](CCCNC(=N)N)NC(=O)[C@H](CC(C)C)NC(=O)[C@H](Cc1ccccc1)NC(=O)CNC(=O)CNC(=O)[C@@H](N)Cc1ccc(O)cc1)C(=O)N[C@@H](CCCNC(=N)N)C(=O)N1CCC[C@H]1C(=O)N[C@@H](CCCCN)C(=O)N[C@@H](CC(C)C)C(=O)N[C@@H](CCCCN)C(=O)N[C@@H](Cc1c[nH]c2ccccc12)C(=O)N[C@@H](CC(=O)O)C(=O)N[C@@H](CC(N)=O)C(=O)N[C@@H](CCC(N)=O)C(=O)O  EC50 (C57BL/6 mouse striatal membranes): 2.1 ± 0.2 µM
CC[C@H](C)[C@H](NC(=O)[C@@H](NC(=O)[C@H](CC(=O)O)NC(C)=O)[C@@H](C)O)C(=O)N[C@@H](CCCNC(=N)N)C(=O)N[C@@H](CC(C)C)C(=O)N[C@@H](CC(C)C)C(=O)N[C@@H](Cc1ccccc1)C(=O)N[C@@H](CCC(N)=O)C(=O)N[C@@H](CC(C)C)C(=O)N[C@@H](CCSC)C(=O)N[C@@H](CCCNC(=N)N)C(=O)N1CCC[C@H]1C(=O)N1CCC[C@H]1C(=O)N[C@@H](CC(N)=O)C(=O)N[C@@H](CCSC)C(=O)N[C@H](C(=O)N1CCC[C@H]1C(=O)N[C@@H](C)C(=O)N[C@H](C(=O)N[C@@H](CC(N)=O)C(=O)N[C@@H](C)C(N)=O)C(C)C)[C@@H](C)O  antigen-experienced T cells (measured: HA-29 tetramer; tetramer+ CD4 T cells, PBMC, healthy adults, HLA-DRB1*0101; dose not given, CD62L−CD45RA+/− or CD62L+CD45RA−): 38.9%
CCCCCCCCCCCCCCCC(=O)N[C@@H](CCC(=O)NCCOCCOCCC(=O)NCCOCCOCCC(=O)NCCCC[C@H](NC(=O)[C@H](CC(=O)O)NC(=O)[C@H](CC(C)C)NC(=O)[C@H](Cc1ccc(O)cc1)NC(=O)[C@H](CCCCN)NC(=O)[C@H](CO)NC(=O)[C@H](Cc1ccc(O)cc1)NC(=O)[C@H](CC(=O)O)NC(=O)[C@H](CO)NC(=O)[C@@H](NC(=O)[C@H](Cc1ccccc1)NC(=O)[C@@H](NC(=O)CNC(=O)[C@H](CCC(N)=O)NC(=O)[C@@H](CO)NC(=O)[C@@H](N)Cc1c[nH]cn1)[C@@H](C)O)[C@@H](C)O)C(=O)N[C@@H](CCCNC(=N)N)C(=O)N[C@@H](CCCNC(=N)N)C(=O)N[C@@H](C)C(=O)N[C@@H](CCC(N)=O)C(=O)N[C@@H](CC(=O)O)C(=O)N[C@@H](Cc1ccccc1)C(=O)N[C@H](C(=O)N[C@@H](CCC(N)=O)C(=O)N[C@@H](Cc1c[nH]c2ccccc12)C(=O)N[C@@H](CC(C)C)C(=O)N[C@@H](CC(C)C)C(=O)N[C@@H](CC(N)=O)C(=O)N[C@H](C(=O)NCC(=O)NCC(=O)N1CCC[C@H]1C(=O)N[C@@H](CO)C(=O)N[C@@H](CO)C(=O)NCC(=O)N[C@@H](C)C(=O)N1CCC[C@H]1C(=O)N1CCC[C@H]1C(=O)N1CCC[C@H]1C(=O)N[C@@H](CO)C(N)=O)[C@@H](C)O)C(C)C)C(=O)O  NFκB and IκBα phosphorylation (Western blot; C57BL/6J mouse CCl4 model, liver; dose not given): inhibited
O=C(O)CCCC(=O)O  ABTS radical scavenging (62.5 µg/mL): 47.5 ± 2.06%
somatostatin  GFAP-positive glial activation (Sprague-Dawley rat, streptozotocin-induced diabetes, retina; eye drops, 10 mg/mL, score 3): 0%
N=C(N)NCCC[C@H](NC(=O)[C@H](Cc1c[nH]c2ccccc12)NC(=O)[C@H](CCCNC(=N)N)NC(=O)[C@H](CCCNC(=N)N)NC(=O)[C@@H]1CCCN1C(=O)[C@H](CCCCN)NC(=O)[C@@H](N)CCCNC(=N)N)C(=O)N[C@@H](Cc1c[nH]c2ccccc12)C(=O)N[C@@H](Cc1c[nH]c2ccccc12)C(=O)N1CCC[C@H]1C(=O)N[C@@H](CCCCN)C(=O)N[C@@H](CCCNC(=N)N)C(=O)N1CCC[C@H]1C(=O)O  ABTS radical scavenging (ABTS; 1 mg/mL): 72%
CCCCCCCC/C=C\CCCCCCCCOP(O)(O)=S.N  delay of death (C57BL/6 mouse; subcutaneous, 1 mg/kg, 24 h after irradiation, with: 8.6 Gy total-body irradiation): 4 days
O=c1c(O)c(-c2cc(O)ccc2O)oc2cc(O)cc(O)c12  ABTS radical scavenging (250 µg/mL): 67.1 ± 1.1%
O=C(O)CCn1c(=O)oc2cc(Cl)c(Cl)cc21  KL-6 level (rat, acute pancreatitis, serum; dose not given, 6 h): 16 ± 2 ng/mL
CCc1nnc(-c2c(OC)cc(-c3cnc4cc(-c5cnn(C)c5)ccn34)cc2OC)o1  mRNA level (RT-qPCR, measured: Acp5; male C57BL/6J mouse, cortical bone; oral gavage, dose not given, 3 wk once daily; reference: vehicle): increased

For quick reference, copied from above:
CC(=O)c1nn(-c2ccc(Cl)cc2)c2nc3nc(-c4ccccc4)cc(-c4ccc5ccccc5n4)c3c(=O)n12  IC50 (DPPH scavenging, absorbance; 30 min): 133 µM
COc1ccc([N+](=O)[O-])cc1NC(=O)CCC(=O)[O][Zn][O]C(=O)CCC(=O)Nc1cc([N+](=O)[O-])ccc1OC.c1ccncc1  ABTS radical scavenging (ABTS; 250 µg/mL): 71.85 ± 0.57%
